Measured values collected from several papers.
Each line is one published result; not all experiments were run side by side.
Target: TGF-beta receptor type-2 (TGFBR2, Homo sapiens, UniProt P37173)
UniProt P37173, sequence (whole entry, looked up): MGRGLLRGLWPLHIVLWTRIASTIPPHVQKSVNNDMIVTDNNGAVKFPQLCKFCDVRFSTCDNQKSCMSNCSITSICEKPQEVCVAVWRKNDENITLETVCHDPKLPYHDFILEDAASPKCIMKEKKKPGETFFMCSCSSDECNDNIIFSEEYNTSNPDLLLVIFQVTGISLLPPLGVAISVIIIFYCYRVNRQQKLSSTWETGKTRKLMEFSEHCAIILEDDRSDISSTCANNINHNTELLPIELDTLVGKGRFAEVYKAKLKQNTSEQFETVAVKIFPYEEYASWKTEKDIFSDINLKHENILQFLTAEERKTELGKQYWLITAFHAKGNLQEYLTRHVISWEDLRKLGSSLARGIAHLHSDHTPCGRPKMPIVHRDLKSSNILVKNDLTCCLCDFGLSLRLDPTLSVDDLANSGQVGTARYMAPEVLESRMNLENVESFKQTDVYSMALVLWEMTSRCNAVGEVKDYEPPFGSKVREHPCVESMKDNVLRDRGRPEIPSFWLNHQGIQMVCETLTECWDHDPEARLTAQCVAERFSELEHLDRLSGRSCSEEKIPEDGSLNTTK

| test | system | setting | scale | quantity | value | SMILES |
| --- | --- | --- | --- | --- | --- | --- |
| binding, competition with immobilised ligand |  | 1 µM |  | remaining binding | 60% | COc1cc(Nc2nccc(-c3cnn4nc(OC)ccc34)n2)cc(C(F)(F)F)c1 |
| enzyme activity, inhibitor |  | 0.1 µM |  | inhibition | 6% | CN1CCN(Cc2ccc(-c3ccc(CO[C@H]4CCC[C@@H]4NC(=O)c4cc(-c5cnn(C)c5)cnc4N)cc3)cc2)CC1 |
| enzyme activity, inhibitor |  | 1 µM |  | inhibition | 22% | CN1CC[C@@H](COc2cnc(C#N)cc2-c2ccn3nc(NC(=O)C4CC4)cc3c2)C1 |
| enzyme activity, inhibitor |  | 10 µM |  | inhibition | -7% | NC(=O)[C@@H](O)C[C@H]1CCc2sc3ncnc(O[C@H]4CC[C@H](N5CCOCC5)CC4)c3c21 |
| binding, competition with immobilised ligand |  | 1 µM |  | remaining binding | 19% | CNC(=O)C1CCN(c2cc(C)c(F)cc2NC(=O)c2ccc(-c3cc(O)ccc3C)c(C)c2)CC1 |
| enzyme activity, inhibitor |  | 10 µM |  | activity vs control | 108% | O=C(Cc1ccc(OCc2ccccc2)cc1)NC1(C(=O)O)CCN(C(=O)c2ccc(-c3cccc(Cl)c3)cc2)CC1 |
| binding, competition with immobilised ligand |  | 1 µM |  | remaining binding | 100% | Nc1ncc2c(n1)-c1c([nH]c3ccc(C4=CCOCC4)cc13)CCC2 |
| enzyme activity, inhibitor |  | 1 µM |  | activity vs control | 96% | CNC(=O)C[C@H](Cc1ccc(C#N)cc1)NC(=O)c1cc(-c2ccc(CN[C@H](C)c3ccc(C)cc3)o2)ccc1Cl |
| binding, competition with immobilised ligand |  | 1 µM |  | remaining binding | 26% | CCN1CCN(Cc2ccc(NC(=O)c3ccc(C)c(NC(=O)c4cncc(-c5cnn(C)c5)c4)c3)cc2C(F)(F)F)CC1 |
| binding, competition with immobilised ligand |  | 0.2 µM |  | inhibition | 1.5% | COc1ccc(O)cc1-c1c[nH]c2ncc(-c3cncc(C(=O)N(C)C)c3)cc12 |
| KinomeScan |  | 0.1 µM | baseline: untreated | remaining binding | 99% | CNC1C[S+]2CC[S+]3CC[S+](C1)[Ru-4]321([N]=C=S)[n]2c3ccc(OC)cc3c3c4c(c5cc(F)c[n+]1c5c32)C(=O)NC4=O (stereo not shown) |
| target engagement, NanoBRET | human cells |  |  | Hill slope | -15 | Cc1ccc(C(=O)Nc2ccc(CN3CCN(C)CC3)c(C(F)(F)F)c2)cc1C#Cc1cnc2cccnn12 |
| cell-free assay, competition with immobilised ligand |  | 1 µM |  | remaining binding | 74% | Cc1ccc(-c2c(/C=C(\C#N)C(=O)NC(C)C)n(CCCO)c3ncnc(N)c23)cc1 |
